{"data": "Experimental data collected from several papers", "CASP4": "Caspase-4 (CASP4, Homo sapiens, UniProt P49662)", "AR": "Androgen receptor (AR, Homo sapiens, UniProt P10275)", "note": "Lines come from different studies, so protocols differ.", "UniProt P49662, sequence (whole entry, looked up)": "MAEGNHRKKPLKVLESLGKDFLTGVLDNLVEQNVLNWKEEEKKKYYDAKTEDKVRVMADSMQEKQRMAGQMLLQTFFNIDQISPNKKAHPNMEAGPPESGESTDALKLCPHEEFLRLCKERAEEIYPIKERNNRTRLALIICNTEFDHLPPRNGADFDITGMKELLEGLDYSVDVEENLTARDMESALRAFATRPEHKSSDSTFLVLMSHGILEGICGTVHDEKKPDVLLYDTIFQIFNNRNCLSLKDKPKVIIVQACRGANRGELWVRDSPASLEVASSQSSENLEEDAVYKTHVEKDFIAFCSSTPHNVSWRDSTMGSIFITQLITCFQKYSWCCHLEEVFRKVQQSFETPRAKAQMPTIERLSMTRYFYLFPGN", "UniProt P10275, sequence (whole entry, looked up)": "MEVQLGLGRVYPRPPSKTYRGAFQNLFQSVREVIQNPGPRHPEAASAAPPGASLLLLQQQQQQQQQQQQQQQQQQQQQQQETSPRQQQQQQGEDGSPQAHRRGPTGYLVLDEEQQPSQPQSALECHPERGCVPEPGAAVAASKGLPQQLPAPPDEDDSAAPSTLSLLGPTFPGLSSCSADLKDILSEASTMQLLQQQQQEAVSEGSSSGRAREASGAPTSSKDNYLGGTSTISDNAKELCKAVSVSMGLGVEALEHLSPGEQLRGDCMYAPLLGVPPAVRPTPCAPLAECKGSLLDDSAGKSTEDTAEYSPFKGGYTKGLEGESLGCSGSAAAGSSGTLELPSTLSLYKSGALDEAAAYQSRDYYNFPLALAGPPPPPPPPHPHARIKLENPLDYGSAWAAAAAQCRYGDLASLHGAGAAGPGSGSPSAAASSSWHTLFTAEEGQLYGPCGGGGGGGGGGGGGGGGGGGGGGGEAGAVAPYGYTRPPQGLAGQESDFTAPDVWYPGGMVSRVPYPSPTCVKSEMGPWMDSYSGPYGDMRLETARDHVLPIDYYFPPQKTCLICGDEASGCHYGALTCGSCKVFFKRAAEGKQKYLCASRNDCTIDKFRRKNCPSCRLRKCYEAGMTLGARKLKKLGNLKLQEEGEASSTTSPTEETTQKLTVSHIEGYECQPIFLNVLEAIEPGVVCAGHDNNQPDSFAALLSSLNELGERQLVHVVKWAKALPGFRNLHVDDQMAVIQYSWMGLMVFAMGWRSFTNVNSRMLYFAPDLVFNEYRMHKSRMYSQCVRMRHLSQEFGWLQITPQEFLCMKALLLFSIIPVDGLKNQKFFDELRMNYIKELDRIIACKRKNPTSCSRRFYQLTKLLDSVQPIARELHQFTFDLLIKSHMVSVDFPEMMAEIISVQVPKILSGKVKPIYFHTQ", "UniProt P02730, sequence (whole entry, looked up)": "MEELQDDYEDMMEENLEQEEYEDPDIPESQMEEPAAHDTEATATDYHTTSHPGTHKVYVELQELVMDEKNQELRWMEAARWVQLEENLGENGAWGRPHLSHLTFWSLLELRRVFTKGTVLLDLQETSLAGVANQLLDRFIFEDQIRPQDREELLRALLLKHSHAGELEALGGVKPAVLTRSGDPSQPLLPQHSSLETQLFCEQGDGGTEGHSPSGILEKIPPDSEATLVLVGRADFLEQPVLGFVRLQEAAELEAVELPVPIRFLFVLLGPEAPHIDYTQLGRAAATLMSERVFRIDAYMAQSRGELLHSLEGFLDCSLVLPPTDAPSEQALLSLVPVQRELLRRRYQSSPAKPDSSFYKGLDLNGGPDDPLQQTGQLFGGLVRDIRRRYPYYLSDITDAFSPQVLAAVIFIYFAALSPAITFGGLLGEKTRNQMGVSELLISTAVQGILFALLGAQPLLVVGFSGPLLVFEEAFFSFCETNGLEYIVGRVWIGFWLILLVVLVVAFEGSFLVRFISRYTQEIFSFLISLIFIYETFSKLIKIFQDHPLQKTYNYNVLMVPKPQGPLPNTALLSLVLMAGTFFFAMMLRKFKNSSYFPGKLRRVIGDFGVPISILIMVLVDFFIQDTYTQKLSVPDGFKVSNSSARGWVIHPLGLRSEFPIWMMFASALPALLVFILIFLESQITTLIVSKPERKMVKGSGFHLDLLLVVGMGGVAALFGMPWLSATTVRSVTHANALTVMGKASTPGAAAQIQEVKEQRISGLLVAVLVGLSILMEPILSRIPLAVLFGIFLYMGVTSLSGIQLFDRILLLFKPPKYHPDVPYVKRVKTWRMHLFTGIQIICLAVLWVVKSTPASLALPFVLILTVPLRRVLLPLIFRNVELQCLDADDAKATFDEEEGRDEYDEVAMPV", "UniProt P27472, sequence (whole entry, looked up)": "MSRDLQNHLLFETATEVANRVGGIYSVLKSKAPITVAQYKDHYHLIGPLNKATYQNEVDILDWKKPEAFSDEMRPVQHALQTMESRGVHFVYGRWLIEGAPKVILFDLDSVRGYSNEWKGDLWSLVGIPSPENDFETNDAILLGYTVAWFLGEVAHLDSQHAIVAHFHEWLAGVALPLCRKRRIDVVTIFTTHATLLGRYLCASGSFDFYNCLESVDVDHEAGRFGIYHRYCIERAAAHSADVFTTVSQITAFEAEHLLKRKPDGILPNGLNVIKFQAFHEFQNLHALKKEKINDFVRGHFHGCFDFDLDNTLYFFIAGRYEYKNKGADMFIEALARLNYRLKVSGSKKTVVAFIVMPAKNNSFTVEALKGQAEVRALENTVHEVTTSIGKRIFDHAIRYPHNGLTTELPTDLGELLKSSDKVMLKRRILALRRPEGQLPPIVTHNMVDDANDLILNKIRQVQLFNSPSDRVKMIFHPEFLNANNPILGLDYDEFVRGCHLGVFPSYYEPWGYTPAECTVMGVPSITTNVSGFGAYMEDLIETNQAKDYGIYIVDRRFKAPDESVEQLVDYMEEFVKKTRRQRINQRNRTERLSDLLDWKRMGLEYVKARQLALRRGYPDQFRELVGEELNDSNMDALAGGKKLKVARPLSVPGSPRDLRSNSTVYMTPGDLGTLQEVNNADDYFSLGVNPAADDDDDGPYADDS", "UniProt P06536, sequence (whole entry, looked up)": "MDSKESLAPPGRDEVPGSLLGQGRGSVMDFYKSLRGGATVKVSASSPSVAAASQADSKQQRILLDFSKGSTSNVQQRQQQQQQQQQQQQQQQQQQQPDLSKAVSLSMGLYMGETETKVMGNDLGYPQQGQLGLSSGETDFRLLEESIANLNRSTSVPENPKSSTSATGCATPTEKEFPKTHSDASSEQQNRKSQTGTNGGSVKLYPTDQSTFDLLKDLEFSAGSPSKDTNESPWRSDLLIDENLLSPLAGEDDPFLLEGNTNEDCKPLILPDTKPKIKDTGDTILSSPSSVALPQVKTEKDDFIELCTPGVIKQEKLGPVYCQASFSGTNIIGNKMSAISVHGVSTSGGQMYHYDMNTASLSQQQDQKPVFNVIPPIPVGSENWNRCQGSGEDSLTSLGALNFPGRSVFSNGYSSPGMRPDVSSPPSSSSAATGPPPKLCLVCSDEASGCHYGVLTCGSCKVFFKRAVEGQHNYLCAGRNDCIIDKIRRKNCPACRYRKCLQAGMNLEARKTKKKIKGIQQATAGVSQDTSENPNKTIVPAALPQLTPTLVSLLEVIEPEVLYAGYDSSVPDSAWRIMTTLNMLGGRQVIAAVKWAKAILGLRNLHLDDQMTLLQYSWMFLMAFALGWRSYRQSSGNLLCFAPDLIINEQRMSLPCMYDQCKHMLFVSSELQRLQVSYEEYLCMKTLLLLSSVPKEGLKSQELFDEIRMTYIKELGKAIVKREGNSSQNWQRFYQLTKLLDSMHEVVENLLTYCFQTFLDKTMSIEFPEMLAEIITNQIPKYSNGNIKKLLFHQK", "UniProt P00330, sequence (whole entry, looked up)": "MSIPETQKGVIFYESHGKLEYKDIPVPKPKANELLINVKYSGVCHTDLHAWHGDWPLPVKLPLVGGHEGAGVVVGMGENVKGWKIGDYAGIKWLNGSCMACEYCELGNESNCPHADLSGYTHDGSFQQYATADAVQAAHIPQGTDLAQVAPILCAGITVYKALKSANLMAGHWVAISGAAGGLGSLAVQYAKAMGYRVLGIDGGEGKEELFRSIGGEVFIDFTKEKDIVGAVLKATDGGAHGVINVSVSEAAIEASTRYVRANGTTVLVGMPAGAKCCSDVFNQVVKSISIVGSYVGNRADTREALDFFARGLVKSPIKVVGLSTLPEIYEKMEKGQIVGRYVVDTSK", "UniProt Q01581, sequence (whole entry, looked up)": "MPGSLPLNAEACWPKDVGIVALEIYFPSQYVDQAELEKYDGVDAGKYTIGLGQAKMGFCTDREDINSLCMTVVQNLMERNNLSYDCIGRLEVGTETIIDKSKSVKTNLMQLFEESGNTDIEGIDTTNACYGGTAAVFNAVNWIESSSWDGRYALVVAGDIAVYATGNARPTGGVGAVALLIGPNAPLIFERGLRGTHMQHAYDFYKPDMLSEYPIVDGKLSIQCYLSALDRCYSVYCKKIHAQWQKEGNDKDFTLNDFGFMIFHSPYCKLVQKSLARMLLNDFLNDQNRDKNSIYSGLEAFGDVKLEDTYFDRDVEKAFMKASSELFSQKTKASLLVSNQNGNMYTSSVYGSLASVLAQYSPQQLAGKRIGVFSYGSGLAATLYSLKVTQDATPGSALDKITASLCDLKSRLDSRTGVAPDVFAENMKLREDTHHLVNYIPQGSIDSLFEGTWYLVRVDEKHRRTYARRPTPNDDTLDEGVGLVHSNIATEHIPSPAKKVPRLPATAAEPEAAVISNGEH"}
{"SMILES": "Cc1ccc(C(=O)c2ccc(CC(=O)O)n2C)cc1", "target": "CASP4", "conditions": "33 µM, added: LEHD substrate", "how to read": "reference: solvent control", "remaining activity": "8.64%"}
{"SMILES": "CCOC(=O)OC(=O)OCC", "target": "ADH1 (Saccharomyces cerevisiae, UniProt P00330)", "test": "enzyme activity, inactivator", "conditions": "90 µM, pH 8.0, 30 °C, turnover number", "remaining activity": "12 s⁻¹"}
{"SMILES": "Cn1c(=O)c2[nH]c(Cc3ccccc3)nc2n(C)c1=O", "target": "AR", "test": "reporter gene, antagonist, PSA-luciferase", "test system": "HeLa-A6", "conditions": "10 µM, 24 h, added: 5 nM dihydrotestosterone", "how to read": "reference: maximal activity", "remaining activity": "102%"}
{"SMILES": "O=c1c2ccccc2[se]n1-c1ccccc1", "target": "CASP4", "conditions": "33 µM, added: LEHD substrate", "how to read": "reference: solvent control", "remaining activity": "5.95%"}
{"SMILES": "[Na+].[Na+].[Na+].[O]=[V]([O-])([O-])[O-]", "target": "bovine intestinal alkaline phosphatase", "test": "rapid dilution", "conditions": "10-fold IC50, 30 min preincubation", "remaining activity": "73%"}
{"SMILES": "CCCCCCCCCCSc1nc2c([nH]1)c(=O)n(C)c(=O)n2C", "target": "AR", "test": "reporter gene, antagonist, PSA-luciferase", "test system": "HeLa-A6", "conditions": "10 µM, 24 h, added: 5 nM dihydrotestosterone", "how to read": "reference: maximal activity", "remaining activity": "107%"}
{"SMILES": "COc1ccc(-c2cc(=S)ss2)cc1", "target": "CASP4", "conditions": "33 µM, added: LEHD substrate", "how to read": "reference: solvent control", "remaining activity": "24.5%"}
{"SMILES": "CCCSc1nc2c([nH]1)c(=S)n(C)c(=S)n2C", "target": "Glucocorticoid receptor (Nr3c1, Rattus norvegicus, UniProt P06536)", "test": "reporter gene, antagonist, MMTV-luciferase", "test system": "T47D/A1-2", "conditions": "10 µM, 24 h, added: 5 nM dexamethasone", "how to read": "reference: maximal activity", "remaining activity": "79%"}
{"SMILES": "CN1CCCC1CCn1cnc(-c2ccccc2)c1-c1ccncc1 (centres unmarked)", "target": "Glycogen [starch] synthase isoform 2 (GSY2, Saccharomyces cerevisiae, UniProt P27472)", "test": "inhibitor, 14C-glucose incorporation", "conditions": "300 µM", "how to read": "reference: control", "remaining activity": "> 95%"}
{"SMILES": "O=S(=O)(O)c1cc(N=C=S)ccc1C=Cc1ccc(N=C=S)cc1S(=O)(=O)O", "target": "SLC4A1 (Homo sapiens, UniProt P02730)", "test": "chloride self-exchange flux", "test system": "human erythrocytes", "conditions": "concentration not given, pH 7.2, 38 °C, after maximal covalent binding", "how to read": "reference: untreated", "remaining activity": "0.2%"}
{"SMILES": "CC(=C\\C(=O)O)/C=C(\\C)C[C@H](C)CCCC[C@H]1OC(=O)[C@@H]1CO", "target": "HMGCS1 (Homo sapiens, UniProt Q01581)", "test": "covalent inhibitor, DTNB", "conditions": "20 µM, pH 8.0, room temperature, added: acetyl-CoA 400 µM, acetoacetyl-CoA 7 µM", "remaining activity": "< 10%"}
{"note": "For quick reference, copied from above:"}
{"SMILES": "CCOC(=O)OC(=O)OCC", "target": "ADH1 (Saccharomyces cerevisiae, UniProt P00330)", "test": "enzyme activity, inactivator", "conditions": "90 µM, pH 8.0, 30 °C, turnover number", "remaining activity": "12 s⁻¹"}
